Experimental data collected from several papers.
Compare with care: the assays were run in different laboratories. Numbers after ± are the reported error.

SMILES	target or system	assay	system	setting	how to read	endpoint	value
COc1cnc2cccc(N3CCc4c(cc(Cn5ccnc5C)cc4-c4cn(C)nc4C(F)(F)F)C3=O)c2c1	HCC70	cell growth, inhibitor		120 h		EC50	> 30 µM
COc1cccc(OC)c1NS(=O)(=O)c1ccc(N/C=C2\C(=O)Nc3ccc4ncsc4c32)cc1	CDK2 (Homo sapiens, UniProt P24941)	average of ITC, Octet and Thermofluor		untagged protein		Kd	1.89 µM
O=C(Nc1cccc(-c2nc3ccccc3o2)c1)c1cc([N+](=O)[O-])c(F)cc1F	J774.A1	cytotoxicity				EC50	2 ± 0.3 µM
Cc1nn(-c2nc3c(F)cc(F)cc3s2)c(O)c1C(c1cccc(C(F)(F)F)c1)c1c(C)nn(-c2nc3c(F)cc(F)cc3s2)c1O	THP1-Dual	IFN reporter gene, inhibitor, luciferase reporter		added: HT-DNA		EC50	15.9 µM
CCOC(=O)C1=C(C)NC2=C(C(=O)OC(c3ccc(OC)c(OC)c3)C2)C1c1ccc(Br)cc1 (stereo not drawn)	J774.A1	cytotoxicity				EC50	> 20 µM
NC(=O)c1cnc2[nH]ccc2c1N[C@@H]1[C@@H]2CC3C[C@H]1C[C@@](O)(C3)C2		CD8+ memory T cells, flow cytometry	Caucasian humans, peripheral blood	20 mg single dose	reference: baseline	percent change	0.07%
COC[C@H](NC(=O)c1cnc(C)s1)C(=O)N[C@@H](COC)C(=O)N[C@@H](Cc1ccccc1)C(=O)[C@@]1(C)CO1	BRD4-HiBiT cells	BRD4 degradation rescue, inhibitor		4 h, added: dBET6 500 nM		EC50	9.41 µM
CCOC(=O)C1=C(C)NC2=C(C(=O)OC(c3cccc(C)c3)C2)C1c1ccccc1Cl (stereo not drawn)	J774.A1	cytotoxicity				EC50	> 20 µM
Cc1ccc(-c2nc3ccccc3s2)cc1NC(=O)c1cc([N+](=O)[O-])c(NCCN(C)C)cc1Cl	J774.A1	cytotoxicity				EC50	1.9 µM
CCOC(=O)C1=C(C)NC2=C(C(=O)OC(c3ccc(OC)c(OC)c3)C2)C1c1ccc(Cl)cc1C (mixture of isomers)	J774.A1	cytotoxicity				EC50	> 20 µM
NS(=O)(=O)OC[C@@H]1C[C@@H](n2ccc3c(N[C@H]4CCc5ccccc54)ncnc32)C[C@@H]1O	BRD4-HiBiT cells	BRD4 degradation rescue, inhibitor		24 h, 50% degradation rescued, added: dBET6 500 nM		EC50	0.0568 µM
CCOC(=O)C1=C(C)NC2=C(C(=O)CC(c3ccc(OC)c(OC)c3)C2)C1c1ccc(Cl)cc1 (stereo not drawn)	J774.A1	cytotoxicity				EC50	> 20 µM
Cc1cc(Cl)c(Cl)cc1NC(=O)c1ccc(N2CCNCC2)nc1	J774.A1	cytotoxicity				EC50	5.2 µM
COc1ccc(S(=O)(=O)N(CC(=O)O)c2ccc(N(CC(=O)O)S(=O)(=O)c3ccc(OC)cc3)c3ccccc23)cc1	SH-SY5Y Neh2-luc	reporter gene		3 h		EC50	> 30 µM
CC(C)[C@H](NC(=O)[C@H](Cc1ccc(O)cc1)NC(=O)[C@H](Cc1ccc(O)cc1)NC(=O)[C@@H]1CCCN1C(=O)[C@H](CCC(=O)O)NC(=O)[C@H](CCC(=O)O)NC(=O)[C@H](Cc1c[nH]c2ccccc12)NC(=O)[C@@H]1CCCN1C(=O)[C@@H](NC(=O)[C@H](CCC(N)=O)NC(=O)c1ccc2c(c1)C(=O)OC21c2ccc(O)cc2Oc2cc(O)ccc21)C(C)C)C(=O)N[C@H](C(=O)N[C@@H](CCCCN)C(=O)N[C@@H](CCCCN)C(=O)N[C@@H](CO)C(=O)N[C@@H](CO)C(=O)NCC(=O)NCC(N)=O)C(C)C			human, plasma	intravenous infusion, 500 mg, predose 0 min, day 1		total plasma concentration	not detected
CNCc1ccc(-c2[nH]c3cc(F)cc4c3c2CCNC4=O)cc1		refers to: headache	human patients	oral, 600 mg twice daily, grade 1		patients with adverse event	7.7%
COC(=O)c1ccc(NC(=O)CSc2nnc(-c3ccc(NC(C)=O)cc3)n2C)cc1	Cyclin-dependent kinase 2, with cyclin A (CDK2, Homo sapiens, UniProt P24941)					Kd	> 100 µM
CCOC(=O)C1=C(C)NC2=C(C(=O)OC(c3ccc(OC)c(OC)c3)C2)C1c1ccccc1Cl (mixture of isomers)	J774.A1	cytotoxicity				EC50	> 20 µM
Cc1nn(-c2nc3c(F)cc(F)cc3s2)c(O)c1C(c1ccccc1C(F)(F)F)c1c(C)nn(-c2nc3c(F)cc(F)cc3s2)c1O	THP1-Dual	IFN reporter gene, inhibitor, luciferase reporter		added: HT-DNA		EC50	18.3 µM
Cc1cc(Cl)c(Cl)cc1NC(=O)c1cc([N+](=O)[O-])c(F)cc1Cl	J774.A1	cytotoxicity				EC50	1.8 µM

SMILES	target or system	assay	system	setting	how to read	endpoint	value
CC(C)Oc1c(NC(=O)c2ccc(NC(=O)[C@H](CC(N)=O)NC(=O)c3ccc(NC(=O)c4ccc(C#N)cc4)cc3)cc2)ccc(C(=O)Nc2ccc(C(=O)O)cc2)c1O	Escherichia coli ATCC 25922		neutropenic male CD-1 mice, kidney	iv then sc, 37.5 mg/kg/day, 24 h after infection, thigh infection model		concentration	2.43 ± 0.6 ng/mL
CC(C)C[C@H](NC(=O)C[C@H](O)[C@H](CC(C)C)NC(=O)[C@H](Cc1c[nH]cn1)NC(=O)CNC(=O)[C@@H](NC(=O)[C@H](C)NC(=O)[C@H](Cc1c[nH]c2ccccc12)NC(=O)[C@H](CCC(N)=O)NC(=O)[C@@H](Cc1ccccc1)NC(=O)COCCOCCNC(=O)CCC(C(=O)O)N1CCN(CC(=O)O)CCN(CC(=O)O)CCN(CC(=O)O)CC1)C(C)C)C(N)=O (stereo partly drawn) [lutetium-177 labelled]			female BALB/c nu/nu mice, kidneys	intravenous, 100 pmol, 90 h, added: PA 300 µg		tissue uptake	0.23 ± 0.04 %ID/g
Cn1cc(-c2ccc(-c3cncc(Cl)c3N3CCC4(CCNC4=O)CC3)cc2)cn1	COLO 205	gene expression, microarray, refers to: SOD1 mRNA		concentration not given, 6 h	reference: untreated cells	log2 fold change	-2.29
CC(C)NCC(O)c1ccc(O)c(O)c1 (stereo not drawn)			ventricular cardiomyocytes, C57BL/6 mouse	dose not given, 0.644 s		sarcomere length	1.72 µm
O=C(NN=Cc1ccc(Cl)cc1)C1CC(=O)N(c2ccc(F)cc2F)C1 (stereo not drawn)	PPC-1	cell viability, MTT		72 h		EC50	36.6 ± 6.1 µM
CCn1cc(-c2cc(Cn3ccnc3)cc3c2CCN([C@H](c2cc(OC)ccn2)C2CC2)C3=O)c(C(F)(F)F)n1	HEC265	cell growth		120 h		EC50	0.648 µM
Cc1ccc(-c2nc3ccccc3s2)cc1NC(=O)c1cc([N+](=O)[O-])c(N2CCN(C)CC2)cc1Cl	J774.A1	cytotoxicity				EC50	4 ± 2.2 µM
CCCC1=C(C(=O)OCC)C(c2ccc(Cl)cc2C)C2=C(CC(c3ccc(Cl)c(OC)c3)OC2=O)N1 (mixture of isomers)	J774.A1	cytotoxicity				EC50	> 20 µM
Cc1ccc(-c2nc3ccccc3s2)cc1NC(=O)c1cc([N+](=O)[O-])c(F)cc1F	J774.A1	cytotoxicity				EC50	3.1 µM
O=c1c(O)c(-c2ccc(O)cc2)oc2cc(O)cc(O)c12	HepG2-ARE-Luc	Nrf2-ARE reporter gene, activator				EC50	4.95 µM
c1csc(CNc2cc[nH]n2)c1	human peripheral blood lymphocytes (female)			1130 µg/mL, 4 h, initial, added: with S9		cells with structural aberrations	0%
CC(C)C[C@H](NC(=O)C[C@H](O)[C@H](CC(C)C)NC(=O)[C@H](Cc1c[nH]cn1)NC(=O)CNC(=O)[C@@H](NC(=O)[C@H](C)NC(=O)[C@H](Cc1c[nH]c2ccccc12)NC(=O)[C@H](CCC(N)=O)NC(=O)[C@@H](Cc1ccccc1)NC(=O)COCCOCCNC(=O)CN1CCN(CC(=O)O)CCN(CC(=O)O)CCN(CC(=O)O)CC1)C(C)C)C(N)=O [lutetium-177 labelled]			female BALB/c nu/nu mice, lung	intravenous, 50 pmol, 1 h		tissue uptake	0.5 ± 0.1 %ID/g
CCCC1=C(C(=O)OCC)C(c2ccc(Cl)cc2C)C2=C(CC(c3ccc(OC)c(OC)c3)CC2=O)N1 (mixture of isomers)	J774.A1	cytotoxicity				EC50	> 20 µM
Nc1cccc2c1CN(C1CCC(=O)NC1=O)C2=O (stereo not drawn)	BRD4-HiBiT cells	BRD4 degradation rescue, inhibitor		24 h, 50% degradation rescued, added: dBET6 500 nM		EC50	1.92 µM
CCCOC(=O)C1=C(C)NC2=C(C(=O)OC(c3ccc(OC)c(OC)c3)C2)C1c1ccccc1Cl (stereo not drawn)	J774.A1	cytotoxicity				EC50	> 20 µM
NS(=O)(=O)OC[C@H]1C[C@@H](Nc2ccnc3cc(-c4cccc(SC(F)(F)F)c4)nn23)[C@H](O)[C@@H]1O	BRD4-HiBiT cells	BRD4 degradation rescue, inhibitor		24 h, 50% degradation rescued, added: dBET6 500 nM		EC50	0.0744 µM
CCn1cc(-c2cc(Cn3ccoc3=N)cc3c2CCN([C@@H](C)c2cc(OC)ccn2)C3=O)c(C(F)(F)F)n1	MINO	cell growth, inhibitor		120 h		EC50	0.316 µM
Cc1cc(OCc2nnc(SC3CCCC3)n2-c2cccnc2)ccc1-c1ccc(S(C)(=O)=O)cc1	BRD4-HiBiT cells	BRD4 degradation rescue, inhibitor		24 h, 50% degradation rescued, added: dBET6 500 nM		EC50	5.66 µM
O=C(NN=Cc1ccc(Br)cc1)C1CC(=O)N(c2ccc(F)cc2F)C1 (stereo not drawn)	PPC-1	cell viability, MTT		72 h		EC50	27.3 ± 2.3 µM
